Assay results of several laboratories.
± marks the error that the study gave.
UniProt Q03164, sequence (whole entry, unmodified, looked up): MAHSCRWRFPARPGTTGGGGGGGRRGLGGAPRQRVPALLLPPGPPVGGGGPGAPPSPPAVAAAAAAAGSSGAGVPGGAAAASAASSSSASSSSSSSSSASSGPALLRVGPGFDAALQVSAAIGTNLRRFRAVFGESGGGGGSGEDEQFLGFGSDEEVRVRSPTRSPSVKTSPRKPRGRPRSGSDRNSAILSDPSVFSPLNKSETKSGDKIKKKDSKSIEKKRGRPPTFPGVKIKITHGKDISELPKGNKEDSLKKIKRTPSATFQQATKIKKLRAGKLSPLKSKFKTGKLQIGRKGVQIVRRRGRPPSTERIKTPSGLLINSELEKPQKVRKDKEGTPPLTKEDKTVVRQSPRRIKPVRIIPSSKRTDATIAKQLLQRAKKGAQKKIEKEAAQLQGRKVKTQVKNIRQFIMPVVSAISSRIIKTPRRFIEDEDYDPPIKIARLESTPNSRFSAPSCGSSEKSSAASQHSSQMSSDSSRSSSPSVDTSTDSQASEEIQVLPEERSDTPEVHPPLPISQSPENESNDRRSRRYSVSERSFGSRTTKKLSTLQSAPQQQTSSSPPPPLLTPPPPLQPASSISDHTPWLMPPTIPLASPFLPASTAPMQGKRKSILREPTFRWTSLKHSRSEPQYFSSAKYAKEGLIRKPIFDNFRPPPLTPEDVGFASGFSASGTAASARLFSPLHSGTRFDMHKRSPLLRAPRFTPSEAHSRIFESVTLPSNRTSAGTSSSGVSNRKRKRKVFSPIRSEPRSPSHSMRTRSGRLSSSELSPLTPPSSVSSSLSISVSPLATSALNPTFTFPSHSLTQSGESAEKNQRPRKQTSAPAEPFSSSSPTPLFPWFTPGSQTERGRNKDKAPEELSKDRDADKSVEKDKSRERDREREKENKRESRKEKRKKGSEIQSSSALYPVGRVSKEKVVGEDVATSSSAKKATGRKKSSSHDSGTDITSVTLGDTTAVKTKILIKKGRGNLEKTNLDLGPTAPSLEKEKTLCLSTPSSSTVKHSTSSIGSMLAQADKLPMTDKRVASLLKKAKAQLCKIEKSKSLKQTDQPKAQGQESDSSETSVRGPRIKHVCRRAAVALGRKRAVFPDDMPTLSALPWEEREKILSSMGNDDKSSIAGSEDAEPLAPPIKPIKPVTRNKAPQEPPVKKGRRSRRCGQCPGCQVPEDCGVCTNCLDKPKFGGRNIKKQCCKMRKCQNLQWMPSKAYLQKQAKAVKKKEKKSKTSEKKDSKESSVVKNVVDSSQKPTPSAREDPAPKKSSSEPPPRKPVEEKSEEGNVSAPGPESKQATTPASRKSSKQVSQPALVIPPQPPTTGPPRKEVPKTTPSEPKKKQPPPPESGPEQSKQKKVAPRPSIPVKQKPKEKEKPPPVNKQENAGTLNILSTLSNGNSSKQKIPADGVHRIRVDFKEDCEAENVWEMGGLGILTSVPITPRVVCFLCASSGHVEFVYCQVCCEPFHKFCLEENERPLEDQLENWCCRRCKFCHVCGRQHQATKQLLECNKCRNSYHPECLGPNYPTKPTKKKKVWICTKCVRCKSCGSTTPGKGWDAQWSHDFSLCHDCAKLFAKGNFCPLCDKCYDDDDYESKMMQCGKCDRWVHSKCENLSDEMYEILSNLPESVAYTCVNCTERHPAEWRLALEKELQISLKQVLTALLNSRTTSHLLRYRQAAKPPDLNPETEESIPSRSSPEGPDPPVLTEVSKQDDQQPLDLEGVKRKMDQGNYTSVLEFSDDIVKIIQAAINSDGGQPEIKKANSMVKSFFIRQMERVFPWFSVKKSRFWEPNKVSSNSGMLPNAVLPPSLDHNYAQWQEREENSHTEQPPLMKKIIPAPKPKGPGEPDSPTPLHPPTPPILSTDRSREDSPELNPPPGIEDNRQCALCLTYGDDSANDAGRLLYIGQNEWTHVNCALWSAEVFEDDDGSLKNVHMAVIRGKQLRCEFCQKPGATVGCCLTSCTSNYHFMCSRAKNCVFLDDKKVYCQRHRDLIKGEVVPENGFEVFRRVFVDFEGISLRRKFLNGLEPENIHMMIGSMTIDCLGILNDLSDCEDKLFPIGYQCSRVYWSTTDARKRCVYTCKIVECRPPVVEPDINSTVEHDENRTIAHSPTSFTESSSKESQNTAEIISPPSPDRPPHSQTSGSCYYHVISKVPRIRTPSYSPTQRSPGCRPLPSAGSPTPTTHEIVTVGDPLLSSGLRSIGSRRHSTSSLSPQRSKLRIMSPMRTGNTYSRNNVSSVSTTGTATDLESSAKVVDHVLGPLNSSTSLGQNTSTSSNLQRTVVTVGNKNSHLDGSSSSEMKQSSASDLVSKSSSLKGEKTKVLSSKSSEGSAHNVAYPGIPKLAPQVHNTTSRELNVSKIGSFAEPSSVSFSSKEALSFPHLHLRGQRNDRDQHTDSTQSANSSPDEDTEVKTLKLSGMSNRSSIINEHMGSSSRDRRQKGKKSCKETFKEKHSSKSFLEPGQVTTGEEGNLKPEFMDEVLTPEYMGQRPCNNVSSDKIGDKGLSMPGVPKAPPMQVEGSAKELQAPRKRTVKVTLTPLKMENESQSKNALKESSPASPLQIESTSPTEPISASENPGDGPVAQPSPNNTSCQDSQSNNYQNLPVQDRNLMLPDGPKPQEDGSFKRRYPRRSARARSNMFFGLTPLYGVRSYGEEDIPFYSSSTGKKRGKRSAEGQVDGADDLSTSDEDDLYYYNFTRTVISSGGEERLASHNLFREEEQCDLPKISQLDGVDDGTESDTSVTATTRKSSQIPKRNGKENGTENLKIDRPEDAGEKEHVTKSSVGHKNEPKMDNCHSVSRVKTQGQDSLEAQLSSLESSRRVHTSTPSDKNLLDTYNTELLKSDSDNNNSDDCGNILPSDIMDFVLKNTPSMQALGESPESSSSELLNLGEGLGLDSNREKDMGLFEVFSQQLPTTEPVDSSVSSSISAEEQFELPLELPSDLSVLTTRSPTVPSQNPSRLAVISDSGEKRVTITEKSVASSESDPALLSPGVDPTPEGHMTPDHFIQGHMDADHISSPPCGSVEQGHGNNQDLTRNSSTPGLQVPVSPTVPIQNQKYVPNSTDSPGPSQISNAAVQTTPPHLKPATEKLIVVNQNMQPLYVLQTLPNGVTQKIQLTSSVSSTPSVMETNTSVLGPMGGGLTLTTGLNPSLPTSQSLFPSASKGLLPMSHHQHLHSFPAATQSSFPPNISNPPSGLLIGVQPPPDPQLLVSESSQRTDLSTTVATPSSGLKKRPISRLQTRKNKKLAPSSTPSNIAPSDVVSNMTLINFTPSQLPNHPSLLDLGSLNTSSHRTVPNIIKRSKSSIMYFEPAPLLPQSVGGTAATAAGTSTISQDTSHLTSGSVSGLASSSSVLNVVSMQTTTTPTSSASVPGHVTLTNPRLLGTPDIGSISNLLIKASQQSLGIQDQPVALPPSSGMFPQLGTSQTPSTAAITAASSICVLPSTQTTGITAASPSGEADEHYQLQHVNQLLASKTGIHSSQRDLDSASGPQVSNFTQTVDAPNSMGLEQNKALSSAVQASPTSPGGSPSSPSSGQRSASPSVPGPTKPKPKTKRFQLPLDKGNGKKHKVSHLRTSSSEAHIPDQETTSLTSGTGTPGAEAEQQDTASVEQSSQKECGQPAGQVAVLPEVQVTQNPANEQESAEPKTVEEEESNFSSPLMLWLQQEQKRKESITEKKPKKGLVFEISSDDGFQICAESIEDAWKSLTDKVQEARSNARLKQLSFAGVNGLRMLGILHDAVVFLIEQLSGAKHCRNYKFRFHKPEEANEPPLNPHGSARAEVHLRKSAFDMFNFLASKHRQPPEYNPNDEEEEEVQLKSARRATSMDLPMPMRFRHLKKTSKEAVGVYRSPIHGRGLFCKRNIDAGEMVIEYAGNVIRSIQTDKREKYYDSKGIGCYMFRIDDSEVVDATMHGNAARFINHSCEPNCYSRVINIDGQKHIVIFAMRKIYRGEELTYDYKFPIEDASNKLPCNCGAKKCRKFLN
UniProt Q9Y294, sequence (whole entry, looked up): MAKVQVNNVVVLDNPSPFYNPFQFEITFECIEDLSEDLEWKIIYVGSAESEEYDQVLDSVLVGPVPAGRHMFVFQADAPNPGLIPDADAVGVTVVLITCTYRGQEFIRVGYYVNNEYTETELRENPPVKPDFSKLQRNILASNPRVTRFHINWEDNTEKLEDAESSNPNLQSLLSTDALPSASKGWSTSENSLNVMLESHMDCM
UniProt Q05097, sequence (whole entry, looked up): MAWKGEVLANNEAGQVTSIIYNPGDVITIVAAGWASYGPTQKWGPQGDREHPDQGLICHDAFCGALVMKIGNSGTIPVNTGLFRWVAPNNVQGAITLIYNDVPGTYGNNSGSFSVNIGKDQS
UniProt Q8N884, sequence (whole entry, looked up): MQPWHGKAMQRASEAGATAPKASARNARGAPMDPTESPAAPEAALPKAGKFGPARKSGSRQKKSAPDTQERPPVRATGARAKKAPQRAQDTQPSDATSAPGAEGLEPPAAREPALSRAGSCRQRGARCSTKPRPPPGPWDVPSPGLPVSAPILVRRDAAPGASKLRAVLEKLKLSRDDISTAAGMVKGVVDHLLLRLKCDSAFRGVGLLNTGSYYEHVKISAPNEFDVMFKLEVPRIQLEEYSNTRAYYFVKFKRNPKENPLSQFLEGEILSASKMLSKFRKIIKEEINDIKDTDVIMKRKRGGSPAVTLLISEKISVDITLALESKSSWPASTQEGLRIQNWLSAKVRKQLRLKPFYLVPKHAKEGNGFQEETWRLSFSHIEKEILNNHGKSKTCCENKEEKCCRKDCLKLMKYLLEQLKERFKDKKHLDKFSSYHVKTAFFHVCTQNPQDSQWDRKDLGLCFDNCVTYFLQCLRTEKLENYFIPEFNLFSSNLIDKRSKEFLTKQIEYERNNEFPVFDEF

Compound	target	test	system	setting	scale	measurement	result
CC[C@H](C)[C@H](NC(=O)[C@H](CCCNC(=N)N)NC(=O)NC[C@H](CCC(N)=O)NC(=O)NC[C@H](CCc1ccccc1)NC(=O)NC[C@H](CCCNC(=N)N)NC(=O)NC[C@H](Cc1ccc2ccccc2c1)NC(=O)[C@H](CCCCN)NC(=O)[C@H](CCC(=O)O)NC(C)=O)C(=O)N[C@@H](C)C(N)=O	Histone chaperone ASF1A (Homo sapiens, UniProt Q9Y294)	isothermal titration calorimetry	–	concentration not given, pH 7.5, 20 °C	–	binding enthalpy	-1.7 ± 0.2 kcal/mol
CC[C@@H]1NC(=O)CNC(=O)[C@H](Cc2c[nH]c3ccccc23)NC(=O)[C@H](CC(=O)O)NC(=O)[C@H](CCC(N)=O)NC(=O)[C@H](Cc2c[nH]c3ccccc23)NC(=O)[C@H](C(C)C)NC(=O)[C@@H](NC(=O)[C@@H](NC(C)=O)[C@@H](C)CC)CSSC[C@@H](C(=O)N[C@H](C(N)=O)[C@@H](C)O)NC(=O)[C@H](CCCNC(=N)N)NC(=O)[C@H](Cc2c[nH]cn2)NC1=O	Complement C3, C3b fragment (Homo sapiens, UniProt P01024)	SPR	–	pH 7.4, 25 °C	–	kon	570000 ± 90000 M⁻¹ s⁻¹
O=C(NC1CCCCC1C(=O)O)c1cnn2c(O)cc(-c3ccccc3)nc12 (stereo not shown)	Cyclic GMP-AMP synthase (CGAS, Homo sapiens, UniProt Q8N884)	surface plasmon resonance	–	concentration not given, together with: ATP	–	binding	no binding
Nc1ncnc2c1ncn2[C@H]1C[C@H](O)[C@@H](COP(=O)(O)OP(=O)(O)[C@H](Cl)P(=O)(O)O)O1	DNA polymerase eta (POLH, Homo sapiens, UniProt Q9Y253)	dNTP incorporation, single-turnover kinetics	–	W sequence, A·T pair	baseline: non-enzymatic LFER line	delta effective pKa4	0.1 pK units
C[C@H](N)C(=O)N[C@@H](CCCNC(=N)N)C(=O)N[C@H](C(=O)N[C@@H](CCCC[N+](C)(C)C)C(=O)N[C@@H](CCC(N)=O)C(=O)N[C@H](C(=O)N[C@@H](C)C(=O)N[C@@H](CCCNC(=N)N)C(=O)N[C@@H](CCCCN)C(=O)N[C@@H](CO)C(=O)N[C@H](C(=O)NCC(=O)NCC(=O)N[C@@H](CCCCN)C(=O)N[C@@H](C)C(=O)N[C@@H](Cc1ccc(O)cc1)C(=O)O)[C@@H](C)O)[C@@H](C)O)[C@@H](C)O	Histone-lysine N-methyltransferase 2A, PHD3 finger (KMT2A, Homo sapiens, UniProt Q03164, V1617A)	isothermal titration calorimetry	–	–	baseline: wild-type PHD3	Kd fold increase	~1.7 fold
Nc1ncnc2c1ncn2[C@@H]1O[C@H](CO)[C@@H](O[C@H]2O[C@H](CO)[C@@H](OP(=O)(O)O)[C@H](OP(=O)(O)O)[C@H]2O)[C@H]1O	Inositol 1,4,5-trisphosphate-gated calcium channel ITPR1 (Itpr1, Rattus norvegicus, UniProt P29994, del318-332/R568Q)	Ca2+ release	DT40, permeabilized	–	baseline: R568Q over wild type	fold loss of potency	1.6 fold
Cc1ncsc1-c1ccc(C(CO)NC(=O)C2CC(O)CN2C(=O)C(C(C)C)n2cc(-c3ccc(COc4c(-c5c(C)c(F)cc6[nH]ncc56)c(C5CC5)cc5c(N6CC7CC6CN7)nc(OC6CCOCC6)nc45)cc3)nn2)cc1 (stereo not shown)	GTPase KRas (KRAS, Homo sapiens, UniProt P01116, G12D)	degrader	mouse PK-59 xenograft, tumour	intravenous, 10 mg/kg single, 144 h	–	protein degradation	35%
C#Cc1ccc(O[C@@H]2O[C@H](CO)[C@H](O)[C@H](O)[C@H]2O)cc1	PA-I galactophilic lectin (lecA, Pseudomonas aeruginosa, UniProt Q05097)	isothermal titration calorimetry	–	concentration not given, 25 °C	–	binding stoichiometry	0.94 ± 0.06
NCCO[C@H]1[C@H](O)[C@@H](O)[C@@H]2O[C@@H]2[C@@H]1C(=O)O	Beta-glucuronidase (GUSB, Homo sapiens, UniProt P08236)	inhibitor, competitive ABPP	human platelet lysate	–	–	highest non-inhibiting concentration	> 100 µM
O=C(Nc1ccccn1)C12CC1C(=NO)c1ccccc1O2 (single isomer, unassigned; (+))	Metabotropic glutamate receptor 4 (GRM4, Homo sapiens, UniProt Q14833)	potentiator, calcium mobilization	CHO expressing hmGluR4/Gqi5	together with: glutamate EC20	–	EC50	inactive
